# Measured values from different studies.
# Compare with care: the assays were run in different laboratories. ± marks the error that the study gave.
SMILES,target,test,system,setting,how to read,endpoint,value
NC[C@@H]1O[C@H](O[C@H]2[C@@H](O)[C@H](O[C@@H]3[C@@H](O)[C@H](N)C[C@H](N)[C@H]3O[C@H]3O[C@H](CO)[C@@H](SCCF)[C@H](O)[C@H]3N)O[C@@H]2CO)[C@H](N)[C@@H](O)[C@@H]1O,"bacterial hybrid ribosome, human mitochondrial A1555G A site",cell-free translation,,,baseline: A1555G hybrid over wild-type bacterial,selectivity ratio,867
CC(C)CC(C)N1CCn2cc(C(=O)NCc3ccc(F)cc3F)c(=O)c(O)c2C1=O (centres unmarked),HIV-1 integrase wild type,viral replication,"HOS, HIV-1",single-round vector,,EC50,6 ± 1.2 nM
NC(=O)[C@H](CO)NC(=O)[C@@H]1CCCN1C(=O)[C@H](Cc1ccc(O)cc1)NC(=O)CNC(=O)[C@H](Cc1ccccc1)NC(=O)[C@@H](CCCNC(=O)CBr)NC(=O)[C@@H](N)Cc1ccc(O)cc1,mu and delta opioid receptors,"binding, radioligand binding",CHO cells,added: [3H]DAMGO,baseline: IC50 DOR over IC50 MOR,selectivity ratio,> 3000 fold
Cc1cc(O)cc(-c2nc(Nc3cc(C(F)(F)F)cc(C(F)(F)F)c3)ncc2-c2ccnc(Cl)c2)c1,tyrosine kinases from HT-29 cells,kinase activity,,10 µM,,inhibition,30.4 ± 2.3%
Cc1ncsc1-c1ccc(CNC(=O)[C@@H]2C[C@@H](O)CN2C(=O)[C@@H](NC(=O)Cc2ccc(-c3ccc(CNC(=O)c4cc5c(cc4CS(C)(=O)=O)-c4cn(C)c(=O)c6[nH]cc(c46)CN5c4ncc(F)cc4F)cc3)cc2)C(C)(C)C)cc1,Spodoptera frugiperda BRD3,"degrader, targeted LC-MS",Sf9,"1 µM, 24 h",,degradation,> 85%
Cc1cc(S(=O)(=O)Nc2ncccn2)c(F)cc1N(C)C1CCN([C@H](C)c2ccccc2)CC1,"Nav1.6 R1626A, human","ion current, inhibitor, patch clamp",,,baseline: R1626A over wild type,IC50 increase,> 1000 fold
CCS(=O)(=O)[C@H]1[C@H](O)[C@@H](N)[C@@H](O[C@H]2[C@H](O[C@@H]3O[C@H](CO)[C@@H](O[C@H]4O[C@@H](CN)[C@@H](O)[C@H](O)[C@H]4N)[C@H]3O)[C@@H](O)[C@H](N)C[C@@H]2N)O[C@@H]1CO,"bacterial hybrid ribosome, human cytoplasmic A site",cell-free translation,,,baseline: cytoplasmic hybrid over wild-type bacterial,selectivity ratio,16
CC(C)C[C@H](NC(=O)[C@H](C)NC(=O)[C@H](CCCCN)NC(=O)[C@H](CCCNC(=N)N)NC(=O)[C@H](CCC(=O)O)NC(=O)[C@H](C)NC(=O)[C@H](CCC(=O)O)NC(=O)[C@H](CCCCN)NC(=O)[C@H](CCCCN)NC(=O)[C@H](CC(=O)O)NC(=O)[C@H](Cc1c[nH]cn1)NC(=O)[C@H](CC(=O)O)NC(=O)[C@H](Cc1c[nH]cn1)NC(=O)[C@H](CCCNC(=N)N)NC(=O)[C@H](CCC(=O)O)NC(=O)[C@H](CO)NC(=O)[C@H](CCCCN)NC(=O)[C@H](CC(C)C)NC(=O)[C@H](CCCNC(=N)N)NC(=O)[C@H](CCC(=O)O)NC(=O)[C@H](CC(C)C)NC(=O)[C@H](CCC(=O)O)NC(=O)[C@H](C)NC(=O)[C@H](CCC(=O)O)NC(=O)[C@H](CCC(=O)O)NC(=O)[C@H](Cc1c[nH]cn1)NC(=O)[C@H](CCCNC(=N)N)NC(=O)[C@H](CCC(=O)O)NC(=O)[C@H](CC(N)=O)NC(=O)[C@H](CCCCN)NC(=O)[C@H](CC(C)C)NC(=O)[C@H](CCCNC(=N)N)NC(=O)[C@H](CCC(N)=O)NC(=O)[C@H](CC(C)C)NC(=O)[C@H](CCC(=O)O)NC(=O)[C@H](C)NC(=O)[C@H](CC(=O)O)NC(=O)[C@H](C)NC(=O)[C@@H](NC(=O)[C@H](CC(C)C)NC(=O)[C@H](CCCCN)NC(=O)[C@H](CCC(=O)O)NC(=O)[C@@H](NC(=O)[C@H](CO)NC(=O)CN)C(C)C)[C@@H](C)O)C(=O)N[C@@H](CCC(=O)O)C(=O)N[C@@H](CC(=O)O)C(=O)N[C@@H](CCCCN)C(=O)N[C@@H](CC(C)C)C(=O)N[C@@H](C)C(=O)N[C@@H](CC(=O)O)C(=O)N[C@@H](Cc1ccc(O)cc1)C(=O)O,human K2 plasminogen complex,analytical ultracentrifugation,,"pH 7.4, 25 °C",,molecular mass,27300 ± 850 Da
c1ccc(CCNC2CCCc3c2[nH]c2ccc(C4CCCCC4)cc32)cc1 (centres unmarked),"MurG, Staphylococcus aureus",inhibitor,,,,lipid II synthesis,inhibited
CCCCCCCCCCCCCCCC(=O)NCCCC[C@H](NC(=O)[C@H](CCCNC(=N)N)NC(=O)[C@H](Cc1ccc(O)cc1)NC(=O)[C@H](CC(C)C)NC(=O)[C@H](CCCNC(=N)N)NC(=O)CNS(=O)(=O)c1ccc(N)cc1)C(N)=O,Escherichia coli 70S ribosome,fluorescence quenching,,,baseline: 70S ribosome over LPS,Stern-Volmer constant ratio,~30 fold
O=C(N[C@@H](Cn1ccnc1)c1ccc(F)cc1F)c1ccc(-c2nnc(-c3ccccc3)o2)cc1,Leishmania infantum CYP51,,,concentration not given,,remaining activity,58 ± 4.9%
CC(=O)N1c2ccc(-c3ccc(C(=O)NCCN4CC(N5CCN(CC(=O)N[C@H](C(=O)N6C[C@H](O)C[C@H]6C(=O)NCc6ccc(-c7scnc7C)cc6)C(C)(C)C)CC5)C4)cc3)cc2[C@H](Nc2ccc(Cl)cc2)C[C@@H]1C,Spodoptera frugiperda BRD3,"degrader, targeted LC-MS",Sf9,"1 µM, 24 h",,degradation,74%
O=C(Oc1nsnc1N1CCOCC1)c1ccccc1,trypsin,"enzyme activity, gel-based",,added: denatured BSA substrate,baseline: IgA1 protease over trypsin,selectivity ratio,~3 fold
CCCS[C@H]1[C@H](O)[C@@H](N)[C@@H](O[C@H]2[C@H](O[C@@H]3O[C@H](CO)[C@@H](O[C@H]4O[C@@H](CN)[C@@H](O)[C@H](O)[C@H]4N)[C@H]3O)[C@@H](O)[C@H](N)C[C@@H]2N)O[C@@H]1CO,"bacterial hybrid ribosome, human mitochondrial A site",cell-free translation,,,baseline: mitochondrial hybrid over wild-type bacterial,selectivity ratio,1790
CC(=O)N[C@H]1CSC(=O)[C@H](CC(C)C)NC(=O)[C@H](Cc2ccc(O)cc2)NC(=O)[C@H](CC(N)=O)NC(=O)[C@H](CO)NC1=O,AgrC-II,GFP reporter,"Staphylococcus epidermidis, agr group-II reporter",10 µM,,inhibition,~75%
Cc1cc(Nc2cc(CN(C)C)cc(NC(=O)c3cc(CN(C)C)cc(Nc4ccnc5ccccc45)c3)c2)nc(N)n1,human DNA polymerase theta,inhibitor,,50 µM,,inhibition,~75%
CC(C)S[C@H]1[C@H](O)[C@@H](N)[C@@H](O[C@H]2[C@H](O[C@@H]3O[C@H](CO)[C@@H](O[C@H]4O[C@@H](CN)[C@@H](O)[C@H](O)[C@H]4N)[C@H]3O)[C@@H](O)[C@H](N)C[C@@H]2N)O[C@@H]1CO,"bacterial hybrid ribosome, human cytoplasmic A site",cell-free translation,,,baseline: cytoplasmic hybrid over wild-type bacterial,selectivity ratio,1110
C[C@@H]1O[C@@H](O[C@H]2[C@H](O[C@H]3CC[C@@]4(C)C(CC[C@]5(C)C4CC=C4C6CC(C)(C)CC[C@]6(C(=O)O)CC[C@]45C)[C@]3(C)CO)OC[C@H](O)[C@@H]2O)[C@H](O)[C@H](O[C@@H]2O[C@H](CO)[C@@H](O)[C@H](O)[C@H]2O)[C@H]1O (some centres unmarked),PPARs,"reporter gene, agonist",HepG2 transfected PPRE-luciferase and PPAR,20 h,,EC50,1900 ± 300 nM
CCCCCCCCC(=O)NCc1ccc(O)c(OC)c1,mouse mAb 1-G12,"antibody binding, indirect competitive ELISA",,added: coating antigen 6-OVA,,IC50,0.252 µg/mL
CC(C)CS[C@H]1[C@H](O)[C@@H](N)[C@@H](O[C@H]2[C@H](O[C@@H]3O[C@H](CO)[C@@H](O[C@H]4O[C@@H](CN)[C@@H](O)[C@H](O)[C@H]4N)[C@H]3O)[C@@H](O)[C@H](N)C[C@@H]2N)O[C@@H]1CO,"bacterial hybrid ribosome, human mitochondrial A site",cell-free translation,,,baseline: mitochondrial hybrid over wild-type bacterial,selectivity ratio,1800
CC[C@@H]1CN2CCc3c([nH]c4cccc(OC)c34)[C@@H]2C[C@@H]1/C(=C\OC)C(=O)OC,anti-compound rabbit polyclonal IgG,"antibody binding, competitive indirect ELISA",,pH 7.4,,IC50,1.3 µg/mL
NC[C@@H]1O[C@H](O[C@H]2[C@@H](O)[C@H](O[C@@H]3[C@@H](O)[C@H](N)C[C@H](N)[C@H]3O[C@H]3O[C@H](CO)[C@@H](CCO)[C@H](O)[C@H]3N)O[C@@H]2CO)[C@H](N)[C@@H](O)[C@@H]1O,"bacterial hybrid ribosome, human cytoplasmic A site",cell-free translation,,,baseline: cytoplasmic hybrid over wild-type bacterial,selectivity ratio,1700
O=C1N[C@@H](Cc2ccccc2)C(=O)N2CCC[C@@H]2C(=O)N[C@@H](Cc2ccccc2)C(=O)N[C@H]1Cc1c[nH]c2ccccc12,kappa opioid receptor,antagonist,CHO cell membranes expressing KOR,added: dynorphin A,,Kb,65.2 ± 1.6 nM
Nc1cc(Oc2ccc(-c3ccccc3)cc2)nn1S(=O)(=O)c1ccc(Oc2ccccc2)cc1,dengue virus 2 protease S135A,ESI-TOF MS,,"20 µM, 1 h, 25 °C",baseline: DMSO control,protein mass shift,0 Da
CC[S+]([O-])C1C(CO)OC(OC2C(N)CC(N)C(O)C2OC2OC(CO)C(OC3OC(CN)C(O)C(O)C3N)C2O)C(N)C1O (mixture of isomers),"bacterial hybrid ribosome, human mitochondrial A1555G A site",cell-free translation,,,baseline: A1555G hybrid over wild-type bacterial,selectivity ratio,278
CC(C)C(=O)N[C@H]1c2nc(CCc3ccccc3)cn2[C@H](CO)[C@@H](O)[C@@H]1O,human lysosomal HexA/HexB,,,,baseline: HexA/B over OGA,selectivity ratio,> 200 fold

# For quick reference, copied from above:
SMILES,target,test,system,setting,how to read,endpoint,value
C[C@@H]1O[C@@H](O[C@H]2[C@H](O[C@H]3CC[C@@]4(C)C(CC[C@]5(C)C4CC=C4C6CC(C)(C)CC[C@]6(C(=O)O)CC[C@]45C)[C@]3(C)CO)OC[C@H](O)[C@@H]2O)[C@H](O)[C@H](O[C@@H]2O[C@H](CO)[C@@H](O)[C@H](O)[C@H]2O)[C@H]1O (some centres unmarked),PPARs,"reporter gene, agonist",HepG2 transfected PPRE-luciferase and PPAR,20 h,,EC50,1900 ± 300 nM
CCCCCCCCC(=O)NCc1ccc(O)c(OC)c1,mouse mAb 1-G12,"antibody binding, indirect competitive ELISA",,added: coating antigen 6-OVA,,IC50,0.252 µg/mL
CC(C)CS[C@H]1[C@H](O)[C@@H](N)[C@@H](O[C@H]2[C@H](O[C@@H]3O[C@H](CO)[C@@H](O[C@H]4O[C@@H](CN)[C@@H](O)[C@H](O)[C@H]4N)[C@H]3O)[C@@H](O)[C@H](N)C[C@@H]2N)O[C@@H]1CO,"bacterial hybrid ribosome, human mitochondrial A site",cell-free translation,,,baseline: mitochondrial hybrid over wild-type bacterial,selectivity ratio,1800
CC[C@@H]1CN2CCc3c([nH]c4cccc(OC)c34)[C@@H]2C[C@@H]1/C(=C\OC)C(=O)OC,anti-compound rabbit polyclonal IgG,"antibody binding, competitive indirect ELISA",,pH 7.4,,IC50,1.3 µg/mL
